Assay results pooled from the literature.
Compare with care: the assays were run in different laboratories. Numbers after ± are the reported error.

NC(=O)CC[C@@H]1NC(=O)[C@H](Cc2ccccc2)NC(=O)[C@H](Cc2ccc(O)cc2)NC(=O)CCSSC[C@@H](C(=O)N2CCC[C@H]2C(=O)N[C@H](CCCN=C(N)N)C(=O)NCC(N)=O)NC(=O)[C@H](CC(N)=O)NC1=O  long-term stability (UPLC-MS/MS; human plasma; 156.23 pg/mL, 30 days, -20 °C): 92.7%
CC(C)C[C@H](NC(=O)[C@H](Cc1ccc(O)cc1)NC(=O)[C@H](CC(N)=O)NC(=O)[C@H](CO)NC(=O)CNC(=O)[C@H](Cc1ccc(O)cc1)NC(=O)[C@H](CC(=O)O)NC(=O)CNC(=O)[C@H](Cc1ccc(O)cc1)NC(=O)[C@H](Cc1ccccc1)NC(=O)[C@@H]1CCCN1C(=O)[C@H](Cc1ccccc1)NC(=O)[C@H](CCC(=O)O)NC(=O)[C@H](CCCNC(=N)N)NC(=O)[C@H](Cc1c[nH]cn1)NC(=O)[C@H](CO)NC(=O)[C@H](Cc1c[nH]cn1)NC(=O)[C@H](Cc1c[nH]cn1)NC(=O)[C@H](CCCCN)NC(=O)[C@H](CCC(=O)O)NC(=O)[C@H](Cc1c[nH]cn1)NC(=O)[C@H](Cc1ccccc1)NC(=O)[C@H](CCCCN)NC(=O)[C@H](CCCNC(=N)N)NC(=O)[C@H](CCCNC(=N)N)NC(=O)[C@H](Cc1ccc(O)cc1)NC(=O)CNC(=O)[C@H](Cc1c[nH]cn1)NC(=O)[C@H](Cc1c[nH]cn1)NC(=O)[C@H](CCCNC(=N)N)NC(=O)[C@H](CCCCN)NC(=O)[C@H](CCC(=O)O)NC(=O)[C@H](Cc1c[nH]cn1)NC(=O)[C@H](CO)NC(=O)[C@@H](N)CC(=O)O)C(=O)N[C@@H](Cc1ccc(O)cc1)C(=O)N[C@@H](CC(=O)O)C(=O)N[C@@H](CC(N)=O)C(=O)O  degradation (PAGE band density; whole saliva supernatant G2 and G3, diluted 1:10; 100 µg/mL, 48 h, 37 °C): ~43.3%
C[N+]1(CC(=O)OC2CCCCCCCCCCC2)CCCC1.[I-]  half-life (metabolic stability; male CD-1 mouse, liver microsomes; 1 µM, pH 7.4): 0.0633 h
O=C(O)c1ccccc1O  EC20 (cytochrome c release, ELISA; BALB/cByJ female mouse liver mitochondria; 30 min; relative to: alamethicin maximal release): > 200 µM
CC(C)[C@H](NC(=O)[C@@H]1CCCN1C(=O)[C@H](CCCNC(=N)N)NC(=O)[C@H](CS)NC(=O)[C@H](Cc1c[nH]c2ccccc12)NC(=O)[C@H](CCCNC(=N)N)NC(=O)[C@@H](Cc1ccccc1)NC(=O)[C@H](Cc1c[nH]cn1)NC(=O)[C@H](CCC(=O)O)NC(=O)[C@H](CS)NC(=O)[C@H](CS)NC(=O)[C@H](CCCCN)NC(=O)[C@@H]1CC(=O)N[C@@H](CCCNC(=N)N)C(=O)N[C@@H](C(C)C)C(=O)N[C@@H](CC(=O)O)C(=O)N[C@H](Cc2ccc(O)cc2)C(=O)N1)C(N)=O [technetium-99m labelled]  uptake ratio (C57 mouse, female, B16/F1 melanoma; intravenous, 2 h, with: NDP-MSH 10 µg co-injected; relative to: tumour over kidneys): 0.02
COc1cc2c(cc1OC)CN(CCc1ccc(NC(=O)c3cc(OC)c(OC)cc3NC(=O)c3cnc4ccccc4c3)cc1)CC2  brain concentration (Wistar Unilever rat; intravenous, 15 mg/kg, 3 h): 4130 ± 1640 ng/mL
CCCOC(=O)c1ccc(O)cc1  EC20 (mitochondrial swelling; BALB/cByJ female mouse liver mitochondria; 30 min, with: succinate + rotenone; relative to: CaCl2 maximal swelling): > 800 µM
C[C@H](Oc1ccc(-c2nc(-c3ccc4[nH]cnc4c3)no2)cc1C(F)(F)F)C(F)(F)F.Cl  predose plasma concentration (cynomolgus monkey aneurysm model, plasma; 0.1 mg/kg once daily, 4 weeks dosing): 11 ± 2.5 nM
Cn1nnc2c(C(N)=O)ncn2c1=O  half-life (chemical stability, HPLC; PBS; pH 7.4): 1.98 h
CC(=O)N[C@@H](Cc1ccccc1)C(=O)N[C@H]1CCCNC(=O)[C@H](CCCNC(=N)N)NC(=O)[C@H](Cc2c[nH]c3ccccc23)NC(=O)[C@@H](CC2CCCCC2)NC(=O)[C@@H]2CCCN2C1=O  elimination half-life (C57BL/6J mice, brain; subcutaneous, 1 mg/kg): 1.02 h
CC(C)(c1ccc(O)cc1)c1ccc(O)cc1  half-life (GC-MS; exposure tank water with snails, reconstituted water; 1000 ng/L nominal, 27 °C): 3.08 h
Cc1cn([C@H]2C[C@H](N=[N+]=[N-])[C@@H](CO)O2)c(=O)[nH]c1=O  EC20 (mitochondrial swelling; BALB/cByJ female mouse liver mitochondria; 30 min, with: succinate + rotenone; relative to: CaCl2 maximal swelling): > 200 µM
COc1cccc(-c2ccc(NC(=O)C3=C(C(=O)O)CCC3)c(F)c2)c1  AUC(0-24h) (human, male, plasma; oral, 40 mg once daily, day 13, geometric mean): 159000 ng·h/mL
Cc1c2oc3c(C)ccc(C(=O)N[C@@H]4C(=O)N[C@H](C(C)C)C(=O)N5CCC[C@H]5C(=O)N(C)CC(=O)N(C)[C@@H](C(C)C)C(=O)O[C@@H]4C)c3nc-2c(C(=O)N[C@@H]2C(=O)N[C@H](C(C)C)C(=O)N3CCC[C@H]3C(=O)N(C)CC(=O)N(C)[C@@H](C(C)C)C(=O)O[C@@H]2C)c(N)c1=O  AUC(0-inf) (mouse, Abcc2 knockout FVB, plasma; intravenous, 0.5 mg/kg): 145 ng·h/mL
CNCc1ccc(-c2[nH]c3cc(F)cc4c3c2CCNC4=O)cc1  AUC(0-24 h) (human cancer patients, plasma; intravenous, 8 mg/m2, day 1, with: temozolomide 100): 877 ng·h/mL

A few entries again:
CC(C)[C@H](NC(=O)[C@@H]1CCCN1C(=O)[C@H](CCCNC(=N)N)NC(=O)[C@H](CS)NC(=O)[C@H](Cc1c[nH]c2ccccc12)NC(=O)[C@H](CCCNC(=N)N)NC(=O)[C@@H](Cc1ccccc1)NC(=O)[C@H](Cc1c[nH]cn1)NC(=O)[C@H](CCC(=O)O)NC(=O)[C@H](CS)NC(=O)[C@H](CS)NC(=O)[C@H](CCCCN)NC(=O)[C@@H]1CC(=O)N[C@@H](CCCNC(=N)N)C(=O)N[C@@H](C(C)C)C(=O)N[C@@H](CC(=O)O)C(=O)N[C@H](Cc2ccc(O)cc2)C(=O)N1)C(N)=O [technetium-99m labelled]  uptake ratio (C57 mouse, female, B16/F1 melanoma; intravenous, 2 h, with: NDP-MSH 10 µg co-injected; relative to: tumour over kidneys): 0.02
NC(=O)CC[C@@H]1NC(=O)[C@H](Cc2ccccc2)NC(=O)[C@H](Cc2ccc(O)cc2)NC(=O)CCSSC[C@@H](C(=O)N2CCC[C@H]2C(=O)N[C@H](CCCN=C(N)N)C(=O)NCC(N)=O)NC(=O)[C@H](CC(N)=O)NC1=O  long-term stability (UPLC-MS/MS; human plasma; 156.23 pg/mL, 30 days, -20 °C): 92.7%
